Published values of several laboratories.
Compare with care: the assays were run in different laboratories. Values joined by “and” are separate records of one study, mostly repeats; a detail may differ. Numbers after ± are the reported error.
B1: C1S 438-688 S632A (Homo sapiens, UniProt P09871); chain IIGGSDADIKNFPWQVFFDNPWAGGALINEYWVLTAAHVVEGNREPTMYVGSTSVQTSRLAKSKMLTPEHVFIHPGWKLLEVPEGRTNFDNDIALVRLKDPVKMGPTVSPICLPGTSSDYNLMDGDLGLISGWGRTEKRDRAVRLKAARLPVAPLRKCKEVKVEKPTADAEAYVFTPNMICAGGEKGMDSCKGDAGGAFAVQDPNDKTKFYAAGLVSWGPQCGTYGLYTRVKNYVDWIMKTMQENSTPRED
B2: BRAF kinase 448-723 K723G/P722S/S720E/L716E/S713E/Q709R/L706S/A688R/Y673S/N661D/K630S/V600E/L588N/Q562R (Homo sapiens, UniProt P15056); sequence looked up; chain DDWEIPDGQITVGQRIGSGSFGTVYKGKWHGDVAVKMLNVTAPTPQQLQAFKNEVGVLRKTRHVNILLFMGYSTKPQLAIVTQWCEGSSLYHHLHASETKFEMKKLIDIARQTARGMDYLHAKSIIHRDLKSNNIFLHEDNTVKIGDFGLATEKSRWSGSHQFEQLSGSILWMAPEVIRMQDSNPYSFQSDVYAFGIVLYELMTGQLPYSNINDRDQIIFMVGRGSLSPDLSKVRSNCPKRMKRLMAECLKKKRDERPSFPRILAEIEELARELSG
B3: EFR3B 716-787 (Homo sapiens, UniProt Q9Y2G0); chain VPAEEITYETLKKAIVDSVAVEEQERERRRQVVEKFQKAPFEEIAAHCGARASLLQSKLNQIFEITIRPPPS
B4: TGM1 (Heligmosomoides polygyrus); chain GCMPFSDEAATYKYVAKGPKNIEIPAQIDNSGMYPDYTHVKRFCKGLHGEDTTGWFVGICLASQWYYYEGVQECDDRRCSPLPTNDTVSFEYLKATVNPGIIFNITVHPDASGKYPELTYIKRICKNFPTDSNVQGHIIGMCYNAEWQFSSTPTCPASGCPPLPDDGIVFYEYYGYAGDRHTVGPVVTKDSSGNYPSPTHARRRCRALSQEADPGEFVAICYKSGTTGESHWEYYKNIGKCPDPRCKPLEANESVHYEYFTMTNETDKKKGPPAKVGKSGKYPEHTCVKKVCSKWPYTCSTGGPIFGECIGATWNFTALMECINARGCSSDDLFDKLGFEKVIVRKGEGSDSYKDDFARFYATGSKVIAECGGKTVRLECSNGEWHEPGTKTVHRCTKDGIRTL
B5: IgG; V domains shown; VH QVQLVQSGAEVKKPGASVKVSCKASGYTFTNYGLSWVRQAPGQGLEWMGWISANNGDTNYGQEFQGRVTMTTDTSTSTAYMELRSLRSDDTAVYYCARDSSSSWARWFFDLWGRGTLVTVSS; VL SYVLTQPPSVSVAPGKTARITCGGNIIGSKLVHWYQQKPGQAPVLVIYDDGDRPSGIPERFSGSNSGNTATLTISRVEAGDEADYYCQVWDTGSDPVVFGGGTKLTVL
B6: TEPSIN R226A/E227A/D230A/E233A/R234A/E236A (Homo sapiens, UniProt Q96N21); chain MAAAPPLRDRLSFLHRLPILLKGTSDDDVPCPGYLFEEIAKISHESPGSSQCLLEYLLSRLHSSSGHGKLKVLKILLYLCSHGSSFFLLILKRNSAFIQEAAAFAGPPDPLHGNSLYQKVRAAAQDLGSTLFSDTVLPLAPSQPLGTPPATGMGSQARPHSTLQGFGYSKEHGRTAVRHQPGQAGGGWDELDSGPSSQNSSQNSDLSRVSDSGSHSGSDSHSGASAAPGALAAAVAVVALSDCQQELSLVRTVTRGPRAFLSREEAQHFIKACGLLNCEAVLQLLTCHLRGTSECTQLRALCAIASLGSSDLLPQEHILLRTRPWLQELSMGSPGPVTNKATKILRHFEASCGQLSPARGTSAEPGPTAALPGPSDLLTDAVPLPGSQVFLQPLSSTPVSSRSPAPSSGMPSSPVPTPPPDASPIPAPGDPSEAEARLAESRRWRPERIPGGTDSPKRGPSSCAWSRDSLFAGMELVACPRLVGAGAAAGESCPDAPRAPQTSSQRTAAKEPPGSEPSAFAFLNA
UniProt P05155, sequence (whole entry, unmodified, looked up): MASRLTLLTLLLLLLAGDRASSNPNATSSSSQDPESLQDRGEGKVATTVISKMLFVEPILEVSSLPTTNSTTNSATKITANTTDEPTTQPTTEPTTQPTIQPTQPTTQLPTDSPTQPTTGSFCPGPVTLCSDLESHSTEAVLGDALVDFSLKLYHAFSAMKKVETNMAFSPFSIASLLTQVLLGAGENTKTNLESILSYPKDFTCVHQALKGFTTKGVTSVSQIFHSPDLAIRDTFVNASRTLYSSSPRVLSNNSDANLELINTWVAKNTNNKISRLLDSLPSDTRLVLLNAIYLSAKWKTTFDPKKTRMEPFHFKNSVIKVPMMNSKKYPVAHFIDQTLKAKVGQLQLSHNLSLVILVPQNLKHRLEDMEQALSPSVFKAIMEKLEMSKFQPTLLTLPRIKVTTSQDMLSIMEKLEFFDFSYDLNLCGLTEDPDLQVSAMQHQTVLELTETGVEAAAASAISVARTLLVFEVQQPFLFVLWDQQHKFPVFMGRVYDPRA
UniProt P38646, sequence (whole entry, unmodified, looked up): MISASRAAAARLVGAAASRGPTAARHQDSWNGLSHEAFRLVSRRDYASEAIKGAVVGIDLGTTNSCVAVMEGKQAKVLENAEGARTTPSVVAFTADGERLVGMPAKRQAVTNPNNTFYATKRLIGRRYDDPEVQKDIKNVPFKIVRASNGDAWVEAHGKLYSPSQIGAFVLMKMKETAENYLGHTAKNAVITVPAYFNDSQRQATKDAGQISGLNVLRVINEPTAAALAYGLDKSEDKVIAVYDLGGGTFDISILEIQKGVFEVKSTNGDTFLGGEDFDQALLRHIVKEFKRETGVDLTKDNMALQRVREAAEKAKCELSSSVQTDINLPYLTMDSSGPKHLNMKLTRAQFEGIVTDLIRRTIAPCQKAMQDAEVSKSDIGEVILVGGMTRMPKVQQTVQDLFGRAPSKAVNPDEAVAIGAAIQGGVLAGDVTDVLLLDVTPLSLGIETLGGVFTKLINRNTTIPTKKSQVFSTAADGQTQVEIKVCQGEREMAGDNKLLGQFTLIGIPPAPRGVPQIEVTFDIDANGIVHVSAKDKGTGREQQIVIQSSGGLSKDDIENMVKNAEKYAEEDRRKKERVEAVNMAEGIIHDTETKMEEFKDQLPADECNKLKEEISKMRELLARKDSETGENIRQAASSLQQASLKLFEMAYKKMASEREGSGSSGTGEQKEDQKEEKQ
UniProt P97287, sequence (whole entry, looked up): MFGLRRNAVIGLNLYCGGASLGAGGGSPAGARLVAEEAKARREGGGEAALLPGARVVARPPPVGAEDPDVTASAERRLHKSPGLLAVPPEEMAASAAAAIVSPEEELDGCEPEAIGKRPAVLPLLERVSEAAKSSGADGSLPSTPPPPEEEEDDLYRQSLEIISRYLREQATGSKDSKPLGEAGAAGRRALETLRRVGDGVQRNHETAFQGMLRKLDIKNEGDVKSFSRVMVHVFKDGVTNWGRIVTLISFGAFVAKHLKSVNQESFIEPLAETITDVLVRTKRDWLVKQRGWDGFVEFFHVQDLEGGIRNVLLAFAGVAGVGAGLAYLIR

Molecule | target or system | test | test system | setting | scale | measurement | result
B1 (C1S 438-688 S632A) | SERPING1 111-500 K390A/Q392A (Homo sapiens, UniProt P05155) | SPR |  | added: Ca2+ |  | koff | 0.0731 s⁻¹
Peginesatide | UT7/EPO | phosphorylation, agonist, item: phospho-STAT5 |  | 10 min | relative to: rHuEPO maximum | Emax | 101 ± 3%
EEEWAREIGAQLRRAADDLNAQYERRR (PUMA residues 130-156 M144A; N-acetyl, C-terminal amide) | Mcl1 152-308 (Mus musculus, UniProt P97287) | SPR | peptide |  |  | koff | 0.0043 ± 0.0005 s⁻¹
B2 | MAP2K1 (Homo sapiens, UniProt Q02750) | BLI |  |  |  | koff | 0.00213 s⁻¹
CALLLSAPRR (GOT2 (Gallus gallus); fluorescein label) | HSPA9 47-600 (Homo sapiens, UniProt P38646) | FP | peptide |  |  | koff | 0.0075 s⁻¹
QDEKVKESYV | human MAGI1-3/6 PDZ construct (MBP fusion) | surface plasmon resonance | peptide | concentration not given | higher = stronger binding | normalised SPR binding response | 102 normalised RU
MBL-A mature, hydroxylysine, hydroxyproline in collagen (Rattus norvegicus, UniProt P19999) | C1r/C1s CUB1-EGF-CUB2 (Homo sapiens) | SPR |  | added: CaCl2 140 mM |  | koff | 0.00268 s⁻¹
GSGAGSETSV | human SCRIB PDZ3-4 tandem (MBP fusion) | surface plasmon resonance | peptide | concentration not given | higher = stronger binding | normalised SPR binding response | 88.2 normalised RU
B3 (EFR3B 716-787) | TTC7B/FAM126A 1-308 | BLI |  |  |  | koff | 0.000219 s⁻¹
B4 (TGM1) | TGFBR1 extracellular domain (Homo sapiens) | SPR |  |  |  | koff | 0.0044 s⁻¹
B5 (IgG) | IL13 fragment (Homo sapiens) | SPR | antibody |  |  | koff | 0.000325 s⁻¹
B6 | MAP1LC3B fragment (Homo sapiens) | BLI |  |  |  | koff | 0.083 s⁻¹ and 0.076 s⁻¹ and 0.079 s⁻¹ and 0.078 s⁻¹

For quick reference, copied from above:
Molecule | target or system | test | test system | setting | scale | measurement | result
B1 (C1S 438-688 S632A) | SERPING1 111-500 K390A/Q392A (Homo sapiens, UniProt P05155) | SPR |  | added: Ca2+ |  | koff | 0.0731 s⁻¹
